Measured values from different studies.
Every numbered part comes from another study and shows a few of its results, in no order.

Set 1 — technique: competition protein-binding microarray; form: double-stranded DNA, one strand shown; matrix: in vitro; concentration: 2 µM; with: Pho4 competitor, 0.05 µM; reading: higher = stronger binding; shared flanks, not repeated: … GTCTTGATTCGCTTGACGCTGCTG
Target: Centromere-binding protein 1, full length, His-tagged (CBF1, Saccharomyces cerevisiae, UniProt P17106, residues 1-351)
UniProt P17106, sequence (whole entry, looked up): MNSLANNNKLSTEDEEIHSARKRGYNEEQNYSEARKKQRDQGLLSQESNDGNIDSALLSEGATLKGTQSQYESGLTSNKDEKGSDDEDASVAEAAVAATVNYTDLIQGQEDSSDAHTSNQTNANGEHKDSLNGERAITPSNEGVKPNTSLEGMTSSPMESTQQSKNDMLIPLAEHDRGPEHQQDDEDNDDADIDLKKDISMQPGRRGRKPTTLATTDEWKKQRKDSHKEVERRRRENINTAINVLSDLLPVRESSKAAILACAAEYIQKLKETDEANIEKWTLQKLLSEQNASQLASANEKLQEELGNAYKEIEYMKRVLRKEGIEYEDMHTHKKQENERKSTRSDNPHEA
Notes: whole 60-bp probe, lowest competitor level
Sequence | fluorescence intensity [a.u.]
TAAGTGAGATGGAGTGGCGTGGAACTGCAGGCTGGT | 58.9
CTTGCCAGAGGCATCTGCTAAGGCGTCCCACAAATC | 68
GCCAAGGACCATTACCCCGTGAAGAGATTCTATTGG | 92.5
CTTCTGTAAATTTGGAAGGTGGGTGGACGCGCCCCG | 72.7
TGGAGCCCGCAGCGTCACATGGCGTCTGGGGGCTTG | 341
CTTTCCCGATCTTGCACAGTGGGTGTAGCACATTTG | 59.6
AAAGCGGTAATTTGAGAGGTGGGTGCAGATATCTAT | 64
CAATGCACCCAACTGCATGTGCCATTGTGCATCTAC | 93.7

Set 2 — technique: protein-binding microarray; form: double-stranded DNA, one strand shown; matrix: in vitro; concentration: not given; reading: higher = stronger binding
Target: Microphthalmia-associated transcription factor, full length (MITF, Homo sapiens, UniProt O75030-10, residues 1-413)
Notes: k-mer, scored over probes, only values ≥0.25
Sequence | E-score
CACCCCA | 0.315
ATCATGA | 0.338
CACGAGG | 0.466
CAGATGA | 0.309
CCACGAG | 0.407
GTCACGA | 0.449
GTCACAC | 0.386
ACGTGCC | 0.315

Further values, each from its own experiment
Substance | tested on | test | system | conditions | endpoint | result
ITGB1 (Homo sapiens, UniProt P05556) | ITGA6 (Homo sapiens, UniProt P23229) | cross-linking MS | cell fractions | with: DSSO | cross-linked residues | K202 to K144
EIRHRSGIQ | HLA class I histocompatibility antigen, A alpha chain, allele A*26:03 (Homo sapiens, UniProt P04439) | peptide-MHC binding | peptide | concentration not given | binding | inactive
TCP1 (Homo sapiens, UniProt P17987) | CCT4 (Homo sapiens, UniProt P50991) | cross-linking MS | cell fractions | with: DMTMM | cross-linked residues | E68 to P2
SRSF2 (Homo sapiens, UniProt Q01130) | SRSF7 (Homo sapiens, UniProt Q16629) | cross-linking MS | cell fractions | with: DSSO | cross-linked residues | K52 to K24
COQ3 (Homo sapiens, UniProt Q9NZJ6) | COQ6 (Homo sapiens, UniProt Q9Y2Z9) | cross-linking MS |  | hits only | interaction screen | cross-linked

For quick reference, copied from above (set 1):
Sequence | fluorescence intensity [a.u.]
CTTGCCAGAGGCATCTGCTAAGGCGTCCCACAAATC | 68
GCCAAGGACCATTACCCCGTGAAGAGATTCTATTGG | 92.5
